Measurements collected from several papers.
Every numbered part comes from another study and shows a few of its results, in no order.
Chain of UniProt P21918 (whole entry, looked up): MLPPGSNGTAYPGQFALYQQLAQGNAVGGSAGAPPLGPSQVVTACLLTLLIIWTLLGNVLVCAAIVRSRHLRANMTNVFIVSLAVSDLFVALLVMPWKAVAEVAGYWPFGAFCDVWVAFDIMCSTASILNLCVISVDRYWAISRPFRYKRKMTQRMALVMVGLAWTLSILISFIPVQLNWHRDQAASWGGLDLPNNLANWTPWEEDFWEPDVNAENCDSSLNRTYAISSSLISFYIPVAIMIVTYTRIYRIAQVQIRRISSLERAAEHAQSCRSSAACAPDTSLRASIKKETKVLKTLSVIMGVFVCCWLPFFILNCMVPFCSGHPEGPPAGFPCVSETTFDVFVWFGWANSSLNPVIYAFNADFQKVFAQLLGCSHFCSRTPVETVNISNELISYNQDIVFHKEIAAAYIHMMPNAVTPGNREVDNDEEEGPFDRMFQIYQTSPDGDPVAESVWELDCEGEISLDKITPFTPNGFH

Set 1
Cell line: HaCaT
Tested at: 100 µM
Time: 60 h
Structure (SMILES) | viability
N#CCC(C1CCCC1)n1cc(-c2ncnc3[nH]ccc23)cn1 (centres unmarked) | 25.3%
C[Se]CC[C@H](N)C(=O)O | 131%
Nc1cc(-c2ccncc2)c[nH]c1=O | 140%
CCN(CC)CCNC(=O)c1cc(Cl)c(N)cc1OC | 114%
CC1(C)S[C@@H]2[C@H](NC(=O)[C@H](C(=O)O)c3ccsc3)C(=O)N2[C@H]1C(=O)O | 126%
COC(=O)c1ccc2c(c1)NC(=O)/C2=C(\Nc1ccc(N(C)C(=O)CN2CCN(C)CC2)cc1)c1ccccc1 | 112%
CCOc1ccc(NC(C)=O)cc1 | 126%
CCOc1cc(N)c(Cl)cc1C(=O)NCC1CN(Cc2ccc(F)cc2)CCO1 (centres unmarked) | 117%

Set 2
Organism: Sarcocystis neurona
Read-out: parasite activity
Tested at: 10 µM
Time: 96 h
SMILES | activity class
CCCCC(=O)O[C@]1(C(=O)CO)CC[C@H]2[C@@H]3CCC4=CC(=O)CC[C@]4(C)[C@H]3[C@@H](O)C[C@@]21C | inactive
Oc1c(Cl)cc(Cl)c2cccnc12 | active
CC(=O)O[C@]1(C(C)=O)CC[C@H]2[C@@H]3C[C@H](C)C4=CC(=O)CC[C@]4(C)[C@H]3CC[C@@]21C | inactive
CN(C)CCc1c[nH]c2ccc(C[C@H]3COC(=O)N3)cc12 | inactive
CCOc1cc(CC(=O)N[C@@H](CC(C)C)c2ccccc2N2CCCCC2)ccc1C(=O)O | inactive
OC(CCN1CCCC1)(c1ccccc1)C1CCCCC1 (centres unmarked) | inactive
CO[C@H]1/C=C/O[C@@]2(C)Oc3c(C)c(O)c4c(O)c(c5c(nc6cc(C)ccn65)c4c3C2=O)NC(=O)/C(C)=C\C=C\[C@H](C)[C@H](O)[C@@H](C)[C@@H](O)[C@@H](C)[C@H](OC(C)=O)[C@@H]1C | inactive
CC(C)[C@H](N)C(=O)OCCOCn1cnc2c(=O)[nH]c(N)nc21 | inactive

Set 3
Target: Cyclin-dependent kinase 2, with cyclin A (CDK2, Homo sapiens, UniProt P24941)
Read-out: cell-free assay
Tested at: 0.5 µM
Structure (SMILES) | remaining signal
O=C1Cc2c([nH]c3ccc(Br)cc23)-c2ccccc2N1 | 37.4%
Cc1ccc(NC2=CC(=O)c3sc(C)nc3C2=O)cc1 | 88.1%
COc1cc2c(Nc3ccc(Br)cc3F)ncnc2cc1OCC1CCN(C)CC1 | 94.6%

Single results of other studies
Structure (SMILES) | target | test | conditions | measurement | value
CCOCCn1cc(C(=O)Nc2ccc(-n3nc(-c4cccnc4)cc3C(F)(F)F)cn2)ccc1=O | D(1B) dopamine receptor (DRD5, Homo sapiens, UniProt P21918) | binding, radioligand binding | 10 µM | inhibition | -18.1%

Repeated from above (set 2):
SMILES | activity class
Oc1c(Cl)cc(Cl)c2cccnc12 | active
CN(C)CCc1c[nH]c2ccc(C[C@H]3COC(=O)N3)cc12 | inactive
CCCCC(=O)O[C@]1(C(=O)CO)CC[C@H]2[C@@H]3CCC4=CC(=O)CC[C@]4(C)[C@H]3[C@@H](O)C[C@@]21C | inactive
